# Published values from different studies.
# Protocols differ between the studies behind these lines. ± gives the spread as reported.
# Chain of UniProt P49761 (whole entry, looked up): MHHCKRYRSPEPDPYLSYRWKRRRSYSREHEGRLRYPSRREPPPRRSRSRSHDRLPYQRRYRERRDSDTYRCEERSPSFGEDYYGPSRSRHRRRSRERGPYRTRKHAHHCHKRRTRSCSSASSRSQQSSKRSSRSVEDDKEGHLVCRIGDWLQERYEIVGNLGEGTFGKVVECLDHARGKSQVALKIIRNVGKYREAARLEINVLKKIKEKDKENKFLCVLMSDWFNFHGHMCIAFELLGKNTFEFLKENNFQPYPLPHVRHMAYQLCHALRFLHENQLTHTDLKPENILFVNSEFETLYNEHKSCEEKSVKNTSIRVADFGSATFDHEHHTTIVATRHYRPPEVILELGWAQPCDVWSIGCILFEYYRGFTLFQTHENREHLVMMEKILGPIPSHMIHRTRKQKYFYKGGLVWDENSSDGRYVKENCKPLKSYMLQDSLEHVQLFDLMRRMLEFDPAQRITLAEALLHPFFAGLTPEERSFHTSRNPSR
# Chain of UniProt Q86SG6 (whole entry, looked up): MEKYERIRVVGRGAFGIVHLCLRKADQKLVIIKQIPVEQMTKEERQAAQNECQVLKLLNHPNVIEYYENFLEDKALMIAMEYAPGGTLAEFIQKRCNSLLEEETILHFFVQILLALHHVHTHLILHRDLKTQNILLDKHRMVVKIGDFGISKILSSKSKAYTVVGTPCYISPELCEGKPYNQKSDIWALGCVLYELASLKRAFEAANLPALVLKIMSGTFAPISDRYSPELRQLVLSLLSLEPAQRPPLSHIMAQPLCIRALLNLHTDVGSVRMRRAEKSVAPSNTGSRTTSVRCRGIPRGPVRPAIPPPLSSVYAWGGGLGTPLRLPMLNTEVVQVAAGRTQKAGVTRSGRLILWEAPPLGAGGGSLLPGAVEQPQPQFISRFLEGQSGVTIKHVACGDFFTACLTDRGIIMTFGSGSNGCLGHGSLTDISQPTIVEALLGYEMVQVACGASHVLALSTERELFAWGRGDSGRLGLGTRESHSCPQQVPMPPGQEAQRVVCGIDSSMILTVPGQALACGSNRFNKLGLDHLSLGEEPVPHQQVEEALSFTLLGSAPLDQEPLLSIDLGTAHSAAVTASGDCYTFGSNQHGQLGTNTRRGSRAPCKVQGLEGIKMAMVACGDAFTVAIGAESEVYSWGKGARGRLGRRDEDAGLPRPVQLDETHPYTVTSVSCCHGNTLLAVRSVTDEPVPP
# Chain of UniProt P80192 (whole entry, looked up): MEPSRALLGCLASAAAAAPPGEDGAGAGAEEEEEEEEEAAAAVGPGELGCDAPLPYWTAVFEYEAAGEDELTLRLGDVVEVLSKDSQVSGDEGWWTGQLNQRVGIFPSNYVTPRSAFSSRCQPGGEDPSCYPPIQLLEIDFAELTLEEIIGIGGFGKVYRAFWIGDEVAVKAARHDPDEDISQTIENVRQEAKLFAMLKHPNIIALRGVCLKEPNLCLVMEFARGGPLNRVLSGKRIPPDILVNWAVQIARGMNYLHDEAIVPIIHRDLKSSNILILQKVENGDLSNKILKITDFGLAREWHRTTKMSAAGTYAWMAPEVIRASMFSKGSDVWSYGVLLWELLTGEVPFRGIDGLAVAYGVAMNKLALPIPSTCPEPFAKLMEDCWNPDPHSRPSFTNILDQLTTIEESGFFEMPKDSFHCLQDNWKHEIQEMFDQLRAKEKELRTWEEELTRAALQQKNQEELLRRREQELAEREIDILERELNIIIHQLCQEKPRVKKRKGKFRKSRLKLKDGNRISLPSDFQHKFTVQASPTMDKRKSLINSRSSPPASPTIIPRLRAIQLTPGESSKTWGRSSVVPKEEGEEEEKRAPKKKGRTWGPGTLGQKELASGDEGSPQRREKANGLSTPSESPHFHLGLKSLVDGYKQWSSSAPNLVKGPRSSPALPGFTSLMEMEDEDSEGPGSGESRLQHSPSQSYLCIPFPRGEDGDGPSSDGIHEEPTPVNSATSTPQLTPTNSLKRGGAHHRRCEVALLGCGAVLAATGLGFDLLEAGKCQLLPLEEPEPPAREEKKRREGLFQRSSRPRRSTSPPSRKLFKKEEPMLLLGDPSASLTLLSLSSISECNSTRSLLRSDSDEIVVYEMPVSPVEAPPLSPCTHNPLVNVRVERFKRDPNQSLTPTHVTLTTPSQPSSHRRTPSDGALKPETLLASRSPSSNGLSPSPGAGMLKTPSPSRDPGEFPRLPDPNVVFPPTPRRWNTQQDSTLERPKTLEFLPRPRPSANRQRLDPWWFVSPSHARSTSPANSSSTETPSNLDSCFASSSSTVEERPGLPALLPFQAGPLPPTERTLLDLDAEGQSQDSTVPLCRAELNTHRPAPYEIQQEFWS
Compound,tested on,assay,test system,setting,how to read,quantity,result
Cc1cc(/C=C/C#N)cc(C)c1Oc1nc(NC2CCN(Cc3ccc(S(C)(=O)=O)cc3)CC2)nc2ncccc12,HIV-1,MTT,"MT4, RT A98G/V106I/V179D/Y181C/G333E mutant",,reference: CC50 over EC50,selectivity index,22
O=C1NC2(CC2)COc2ncc(F)cc2[C@H]2COCCN2c2ccn3ncc1c3n2,,,"Sprague-Dawley rat, female, blood","oral, 5 mg/kg/day, end of recovery, 4-week repeated-dose toxicity",reference: red blood cells,reticulocytes,1.6 ± 0.44%
O=C1NC(=O)c2c1c1cc(F)c[n+]3c1c1c2c2cc(O)ccc2[n]1[Ru-4]312([N]=C=S)[S+]3CC[S+]1CC[S+]2CC3 (stereo not drawn),"CLK3 (Homo sapiens, UniProt P49761)",enzyme activity,,"100 nM, human enzyme, together with: 10 µM ATP",reference: untreated,remaining activity,90%
Fc1cccc(COc2ccc(Nc3ncnc4ccc(-c5cccc(N6CCNCC6)c5)cc34)cc2Cl)c1,Trypanosoma cruzi,,NIH 3T3,,reference: NIH 3T3 TC50 over T. cruzi EC50,selectivity ratio,8.5
CN(C)[C@H]1C[C@@]23CC[C@@]4(O2)C(=CC[C@]2(C)[C@@H](c5ccc6ccncc6c5)CC[C@H]24)C=C3[C@@H](O)[C@@H]1O,"NEK8 (Homo sapiens, UniProt Q86SG6)","ATP probe labelling, inhibitor, KiNativ profiling",,1 µM,,inhibition,9.6%
O=C(Oc1cc(OC(=O)c2cc(O)c(O)c(O)c2)c2ccccc2c1)c1cc(O)c(O)c(O)c1,Herpes simplex virus 2,,"BEAS-2B, acyclovir-resistant",,reference: CC50 over IC50,therapeutic index,39.8
CS(C)(=O)=Nc1ccc(-c2ccc(-c3nc4cc(O[C@@H]5CO[C@H]6[C@@H]5OC[C@H]6O)[nH]c4cc3F)cc2)cc1,"MAP3K9 (Homo sapiens, UniProt P80192)","enzyme activity, inhibitor",,10 µM,,inhibition,34%
Cc1nc2cccc(OCC(C)(C)C(=O)NC(C)C)c2c(N)c1C(=O)[O-].[Na+],Salmonella typhimurium,,TA100,"0.80 mg per plate, with S9, preincubation",,revertant colonies per plate,116 ± 3
COc1cc2nc(NC3CCN(Cc4ccc(C(N)=O)cc4)CC3)nc(Oc3c(C)cc(C#N)cc3C)c2cc1OC,HIV-1,MTT,"MT4, RT A98G/V106I/V179D/Y181C/G333E mutant",,reference: CC50 over EC50,selectivity index,< 1
O=C(c1ccc(-c2ccc3ncnc(Nc4ccc(OCc5cccc(F)c5)c(Cl)c4)c3c2)cc1)N1CCOCC1,Trypanosoma cruzi,,NIH 3T3,,reference: NIH 3T3 TC50 over T. cruzi EC50,selectivity ratio,0.3
O=C(O)CCCOc1ccc(O)cc1-c1cc(-c2ccccc2C(F)(F)F)n(-c2ccccc2)n1,Salmonella typhimurium,Ames test,TA100,"concentration not given, with S9 metabolic activation",,growth-inhibiting concentration,5000 µg/plate
CC[C@H](C)[C@H](NC(=O)[C@H](CCCCN)NC(=O)[C@H](CCCCN)NC(=O)[C@H](Cc1ccccc1)NC(=O)[C@H](Cc1ccccc1)NC(=O)[C@H](CCCCN)NC(=O)[C@H](CCCCN)NC(=O)[C@H](Cc1ccccc1)NC(=O)[C@H](CCCNC(=N)N)NC(=O)[C@@H](N)CCCCN)C(=O)N[C@@H](CCCCN)C(=O)N[C@@H](CCCCN)C(=O)N[C@@H](CO)C(=O)N[C@H](C(=O)N[C@@H](CCCCN)C(=O)N[C@@H](CCCCN)C(=O)N[C@@H](CCCNC(=N)N)C(=O)N[C@H](C(=O)N[C@@H](CCCCN)C(=O)N[C@@H](CCCCN)C(=O)N[C@@H](CC(C)C)C(=O)N[C@@H](Cc1ccccc1)C(=O)N[C@@H](CCCCN)C(=O)N[C@@H](CCCCN)C(=O)N1CCC[C@H]1C(=O)N[C@@H](CCCNC(=N)N)C(=O)N[C@H](C(=O)N[C@H](C(=O)N1CCC[C@H]1C(=O)N[C@H](C(=O)N[C@@H](CO)C(=O)N[C@H](C(=O)N1CCC[C@H]1C(=O)N[C@@H](Cc1ccccc1)C(=O)O)[C@@H](C)CC)[C@@H](C)CC)[C@@H](C)CC)C(C)C)C(C)C)C(C)C,Pseudomonas aeruginosa,,"P1, mouse serum","0.5 h, 37 °C",,MIC,4 µg/mL
CC1(F)CN(C(=O)Cn2c(=O)c(C(=O)NCc3ccc(Cl)cc3)cc3nc(N4CCN(CCN)C4=O)cnc32)C1,human cytomegalovirus,,"MRC-5, AD169-GFP",,reference: CC50 over EC50,selectivity ratio,> 105
CC(C)C[C@H](NC(=O)[C@H](CC(C)C)NC(=O)[C@H](CCCCN)NC(=O)[C@H](Cc1ccccc1)NC(=O)[C@@H](NC(=O)[C@H](CCCNC(=N)N)NC(=O)[C@@H](N)CCCCN)C(C)C)C(=O)N[C@@H](CCCCN)C(=O)N[C@@H](CCCNC(=N)N)C(=O)N[C@@H](Cc1ccc(O)cc1)C(=O)N[C@@H](Cc1c[nH]c2ccccc12)C(=O)N[C@@H](CCCNC(=N)N)C(=O)N[C@@H](CCC(N)=O)C(=O)N[C@@H](CC(C)C)C(=O)N[C@@H](CCCCN)C(=O)N[C@@H](CCCCN)C(=O)N1CCC[C@H]1C(=O)N[C@H](C(=O)N[C@@H](CCCNC(=N)N)C(=O)NCCOCCOCC(=O)O)C(C)C,Staphylococcus aureus,,,"6 h, 37 °C, serum stability, together with: 50% human serum",reference: without serum,MIC increase,10 fold
CN1CCN(S(=O)(=O)c2ccc(-c3ccc4ncnc(Nc5ccc(Cl)cc5)c4c3)cc2)CC1,Trypanosoma cruzi,,NIH 3T3,,reference: NIH 3T3 TC50 over T. cruzi EC50,selectivity ratio,1.3
COc1ccccc1-c1n[nH]c2nc(NC3CCN(C(=O)Cc4ccc(F)cc4F)CC3)ncc12,,"bead binding, competition bead pull-down, item: LINJ.35.4500",Leishmania donovani extract,10 µM,reference: vehicle,relative abundance,1.31
CC[C@H](C)[C@H](NC(=O)[C@H](CCCCN)NC(=O)CNC(=O)[C@H](CC(C)C)NC(=O)[C@H](Cc1ccccc1)NC(=O)[C@H](CCCCN)NC(=O)[C@H](CO)NC(=O)[C@H](Cc1ccccc1)NC(=O)[C@H](Cc1c[nH]c2ccccc12)NC(=O)[C@H](CCC(N)=O)NC(=O)[C@@H](NC(=O)[C@H](Cc1ccccc1)NC(=O)CCCCCNC(=O)CN1CCN(CC(=O)O)CCN(CC(=O)O)CCN(CC(=O)O)CC1)C(C)C)C(=O)N[C@@H](CCC(=O)O)C(=O)N1CCC[C@H]1C(=O)N[C@@H](CC(=O)O)C(=O)N[C@H](C(=O)N[C@@H](CO)C(=O)N[C@@H](CCC(N)=O)C(=O)N[C@H](C(=O)N[C@@H](CCC(N)=O)C(=O)N[C@@H](CC(=O)O)C(=O)N1CCC[C@H]1C(=O)N[C@@H](CC(N)=O)C(=O)N[C@@H](CC(=O)O)C(=O)N[C@@H](CCC(N)=O)C(=O)N[C@@H](Cc1ccc(O)cc1)C(=O)N[C@@H](CCC(=O)O)C(=O)N1CCC[C@H]1C(=O)N[C@@H](Cc1ccccc1)C(=O)O)C(C)C)C(C)C [copper-64 labelled],,,"C57BL/6 male mouse, tumour-naive, bone",2 h,,tissue uptake,1.21 ± 0.01 %ID/g
O=S(=O)(c1ccc(-c2ccc3ncnc(Nc4ccc(OCc5cccc(F)c5)c(Cl)c4)c3c2)cc1)N1CCNCC1,Trypanosoma cruzi,,NIH 3T3,,reference: NIH 3T3 TC50 over T. cruzi EC50,selectivity ratio,53.1
